Experimental data collected from several papers.
Lines come from different studies, so protocols differ. Several values in a cell are separate wells, animals, samples, runs or records.
Organism: Escherichia coli
B1: chain MTPELNWRHEFGEIRVTFSIFNRFWLNWMDRSDRIIMIAQMHYTVAVVGSEAGRSLFAPPAY

Substance | assay | system | conditions | how to read | quantity | value
MTPELNWRHEFGEIR | bacterial growth | peptide, DH5α | concentration not given | baseline: with over without arabinose induction | log fold change | 4.24
colistin |  | clinical isolate RKI 1023/14 |  |  | MIC | ≤ 0.5 µg/mL
Triton X-100 |  | tetracycline-resistant | 20 µM, added: tetracycline |  | FIC index | 1
MTPELNWRHEFGEIRVTFSI | bacterial growth | peptide, DH5α | concentration not given, 37 °C | baseline: with over without arabinose induction | fold change | 24.9
Polymyxin B |  | ATCC 25922 | 62.5 µg per disc, 24 h, 37 °C |  | inhibition zone diameter | 18 mm
polymyxin B sulfate | broth microdilution | ATCC 25922 | various colistin salts |  | MIC | 0.06 µg/mL
Polymyxin B |  | ATCC 25922 | concentration not given, added: MgCl2 1 mM | baseline: no added salt | MIC fold change | 2 fold
polymyxin B |  | ATCC BAA-2452 | 4 × MIC |  | time to eradication | 3 h
colistin |  | MG1655 |  |  | MIC | 0.25 µg/mL
colistin |  | ATCC 25922, female ICR mice, subcutaneous infection, infected skin | dose not given |  | bacterial load | 7.97 log CFU/g and 8.33 log CFU/g and 7.66 log CFU/g and 8.37 log CFU/g and 8.59 log CFU/g
gentamicin | time-kill |  | 1 x MIC, 90 min |  | viable count | 0.3 log CFU/mL
colistin |  | ATCC 25922 |  | baseline: 5% CO2 over ambient air | fold MIC shift | 2
B1 | bacterial growth | DH5α | concentration not given, 37 °C | baseline: with over without arabinose induction | fold change | 13.7
bacitracin |  | CGMCC 1.9 | concentration not given, 18 h, 37 °C |  | inhibition zone diameter | 0 mm
colistin | checkerboard | tetracycline-resistant (pBR322) | 0.03125 µM, added: tetracycline |  | tetracycline MIC | 225 µM
polymyxin B acetate | broth microdilution | ATCC 19606 | various colistin salts |  | MIC | 0.06 µg/mL
gentamicin |  |  | concentration not given, 24 h, 37 °C |  | inhibition zone diameter | 12 mm

For quick reference, copied from above:
Substance | assay | system | conditions | how to read | quantity | value
B1 | bacterial growth | DH5α | concentration not given, 37 °C | baseline: with over without arabinose induction | fold change | 13.7
colistin | checkerboard | tetracycline-resistant (pBR322) | 0.03125 µM, added: tetracycline |  | tetracycline MIC | 225 µM
